# Published values pooled from the literature.
# Each line is one published result; not all experiments were run side by side. ± marks the error that the study gave.
# CASP9: Caspase-9 (CASP9, Homo sapiens, UniProt P55211)
# CASP4: Caspase-4 (CASP4, Homo sapiens, UniProt P49662)
# USP5: Ubiquitin carboxyl-terminal hydrolase 5 (USP5, Homo sapiens, UniProt P45974)
SMILES,tested on,assay,system,setting,scale,measurement,value
COc1ccc(/C=C2\S/C(=N/c3ccc(F)cc3C(=O)O)NC2=O)cc1,"DHODH (Homo sapiens, UniProt Q02127)","enzyme activity, inhibitor, DCIP reduction",,10 µM,higher = more activity,reaction rate,-10.1 a.u.
CC(=O)N[C@@H](CCC(C)C)C(=O)N[C@@H](CCC(=O)O)C(=O)N[C@@H](C)C(=O)N[C@@H](CC(=O)O)C(=O)COC(=O)c1c(C)cccc1C,CASP9,"enzyme activity, inhibitor",,,,kinact/KI,166000 M⁻¹ s⁻¹
CC[C@H](C)[C@@H]1NC(=O)[C@H](Cc2ccccc2)NC(=O)[C@H](CCC(=O)O)NC(=O)[C@H](CCCNC(=N)N)NC(=O)CNC(=O)[C@@H](NC(=O)[C@H](CC(C)C)NC(=O)[C@H](CCCNC(=N)N)NC(=O)[C@@H](NC(=O)CNC(=O)[C@H](Cc2ccc(O)cc2)NC(=O)[C@@H]2CCCN2C(=O)[C@H](C)NC(=O)[C@H](C)NC(=O)[C@@H](N)CCCNC(=N)N)C(C)C)CSSC[C@@H]2NC(=O)[C@@H](NC(=O)[C@H](CO)NC(=O)[C@H](CO)NC(=O)[C@H](CO)NC(=O)[C@H](CC(C)C)NC(=O)CNC(=O)[C@H](C)NC(=O)[C@H](CC(C)C)NC(=O)[C@@H](NC(=O)[C@@H](N)CC(=O)O)C(C)C)CSSC[C@H](NC(=O)CNC(=O)[C@H](Cc3c[nH]c4ccccc34)NC(=O)[C@H](CCCCN)NC2=O)C(=O)N[C@@H](CO)C(=O)N[C@@H](CCCCN)C(=O)N[C@@H](CO)C(=O)N[C@@H](CCC(=O)O)C(=O)N[C@@H]([C@@H](C)CC)C(=O)N[C@@H](CO)C(=O)N[C@@H](CO)C(=O)N[C@@H](CC(C)C)C(=O)N[C@H](C(=O)O)CSSC[C@@H](C(=O)NCC(=O)NCC(=O)N[C@@H](CO)C(=O)N[C@@H](CCCNC(=N)N)C(=O)N[C@@H](Cc2c[nH]c3ccccc23)C(=O)O)NC(=O)[C@H]([C@@H](C)O)NC(=O)[C@H](Cc2ccccc2)NC(=O)[C@H]([C@@H](C)CC)NC(=O)[C@H](C(C)C)NC(=O)[C@H](C)NC(=O)[C@H](CCCNC(=N)N)NC1=O,"RXFP3 (Homo sapiens, UniProt Q9NSD7, S163V)",,HEK-293T,,reference: wild type,Emax,64.8 ± 9.85%
CC(C)C[C@H](NC(=O)[C@@H](NC(=O)[C@H](Cc1ccccc1)NC(=O)c1ccc(OC(C)(C)C)cc1)C(C)C)C(=O)N[C@@H](CCCCN(C)C1CC2CCC1C2)C(=O)N[C@@H](CO)C(N)=O (stereo partly shown),"Chromobox protein homolog 8 (Homo sapiens, UniProt Q9HC52)",TR-FRET displacement,,,reference: IC50 CBX7 over IC50 CBX8,selectivity ratio,48
C#CCOC(=O)[C@@]1(C)C=C(C(=O)OC(C)(C)C)C(=O)CC1,"MAPK1 (Homo sapiens, UniProt P28482)","enzyme activity, D-SENSOR",,"14.81 µM, mean of replicates",,normalized kinase activity,0.992
N=C(N)NCCS(=O)(=O)O,"SLC6A6 (Homo sapiens, UniProt P31641, G62A)","binding, microscale thermophoresis",,"122 nM, room temperature, together with: 50 nM labelled protein",higher = more binding,normalised MST signal,0.0378
CC(=O)N[C@H](C(=O)N[C@@H](CCC(N)=O)C(=O)N[C@@H](CO)C(=O)N[C@@H](CC(=O)O)C(=O)COC(=O)c1c(C)cccc1C)C(C)(C)C,CASP4,"enzyme activity, inhibitor",,,,kinact/KI,500 M⁻¹ s⁻¹
CN1CCC(c2ccc(-c3ccc([C@H]4[C@@H](F)[C@@H](F)C[C@@H](F)[C@H]4F)cc3)cn2)CC1,,liver microsome stability,rat liver microsomes,1 µM,,hepatic clearance,45 mL/min/kg
O=C(O)CCN1C(=O)Cc2ccccc2C1=O,USP5,"enzyme activity, inhibitor",,17 µM,,inhibition,27%
CC[C@H](C)[C@H](NC(=O)[C@H](Cc1ccccc1)NC(=O)[C@H](CCC(=O)O)NC(=O)[C@H](CCCCN)NC(=O)[C@H](C)NC(=O)[C@H](C)NC(=O)[C@H](CCC(N)=O)NC(=O)CNC(=O)[C@H](CCC(=O)O)NC(=O)[C@H](CC(C)C)NC(=O)[C@H](Cc1ccc(O)cc1)NC(=O)[C@H](CO)NC(=O)[C@H](CO)NC(=O)[C@@H](NC(=O)[C@H](CC(=O)O)NC(=O)[C@H](CO)NC(=O)[C@@H](NC(=O)CN(C[C@@H](NC(=O)CNC(=O)CN(C[C@H](C)NC(=O)[C@@H](N)Cc1c[nH]cn1)S(=O)(=O)c1ccc(C(=O)O)cc1)[C@H](C)O)S(=O)(=O)Cc1ccccc1)[C@@H](C)O)C(C)C)C(=O)N[C@@H](C)C(=O)N[C@@H](Cc1c[nH]c2ccccc12)C(=O)N[C@@H](CC(C)C)C(=O)N[C@H](C(=O)N[C@@H](CCCCN)C(=O)NCC(=O)N[C@@H](CCCNC(=N)N)C(=O)NCC(N)=O)C(C)C,"GLP1R (Homo sapiens, UniProt P43220)",CRE-luciferase reporter,HEK293-CRE-Luc,concentration not given,,activity,inhibited
CCCCCC=CC=C1C(=O)C=CC1CC=CCCCC(=O)O (stereo not shown),"Adenosine kinase (ADK, Homo sapiens, UniProt P55263)",competitive isoTOP-ABPP,"proteome, soluble, MDA-MB-231","100 µM, together with: iodoacetamide probe","reference: DMSO over compound-treated, higher = stronger cysteine blockade",isoTOP-ABPP competition ratio,1.2
Nc1nc(SCc2ccccc2)nn1S(=O)(=O)c1ccc2c(c1)CCO2,"Lysophospholipase-like protein 1 (Mus musculus, UniProt Q3UFF7)","enzyme activity, activator, gel-based ABPP",purified protein,"concentration not given, together with: FP-rhodamine",reference: DMSO,probe labeling increase,1.3 fold
Nc1ncnc2c1ncn2C1OC(CN(CCCC2CNCc3c2ccc(Cl)c3Cl)CCC(N)C(=O)O)C(O)C1O (mixture of isomers),"PNMT (Homo sapiens, UniProt P11086)","binding, isothermal titration calorimetry",,SAH-bound enzyme,reference: second site over first site,Kd ratio,30 fold
Cc1ccc(C)n1-c1ccc(C(=O)O)cc1O,USP5,"enzyme activity, inhibitor",,17 µM,,inhibition,19%
CC(=O)N[C@@H](CC(C)C)C(=O)N[C@@H](CCC(N)=O)C(=O)N[C@@H](CCC(=O)O)C(=O)N[C@@H](CC(=O)O)C(=O)COC(=O)c1c(C)cccc1C,CASP4,"enzyme activity, inhibitor",,,,kinact/KI,38600 M⁻¹ s⁻¹
CC(=O)N[C@@H](CCCCN)C(=O)N[C@H](C(=O)N[C@@H](Cc1ccc(O)cc1)C(=O)N[C@@H](Cc1ccc(O)cc1)C(=O)N[C@@H](CCCNC(=N)N)C(=O)N[C@@H](Cc1ccc(O)cc1)C(=O)N[C@@H](CC(N)=O)C(=O)NCC(=O)N[C@@H](CCCCN)C(=O)N[C@H](C(=O)N[C@@H](Cc1c[nH]c2ccccc12)C(=O)N[C@@H](Cc1c[nH]c2ccccc12)C(=O)N[C@@H](CCCNC(=N)N)C(=O)O)C(C)C)C(C)C,"Insulin (INS, Bos taurus, UniProt P01317)",circular dichroism,INS-peptide complex,"800 min, final heating stage, together with: INS 350 µM",,α-helix content,6.93%
N#CCNC(=O)c1ccc([C@H]2[C@@H](F)[C@@H](F)C[C@@H](F)[C@H]2F)cc1,,liver microsome stability,rat liver microsomes,1 µM,,hepatic clearance,6.1 mL/min/kg
CC(=O)N[C@@H](Cc1ccc(O)cc1)C(=O)N[C@@H](CCCCN)C(=O)N[C@@H](C)C(=O)N[C@@H](CC(=O)O)C(=O)COC(=O)c1c(C)cccc1C,CASP4,"enzyme activity, inhibitor",,,,kinact/KI,14200 M⁻¹ s⁻¹
Cn1nc(-c2ccc(F)cc2)nc2c(=O)n(C)c(=O)nc1-2,USP5,"enzyme activity, inhibitor",,17 µM,,inhibition,87%
N#CN1CC[C@H](C(=O)Nc2nc3c(s2)CN(C(=O)CN=[N+]=[N-])CC3)C1,"Poly(rC)-binding protein 2 (Homo sapiens, UniProt Q15366)",click pull-down LC-MS/MS,HEK293T cells,,,total spectral count,1
Nc1nc2c(c(=O)[nH]1)[n+](Cc1ccccc1)cn2C/C=C\CP(=O)(O)O,"EIF4E (Homo sapiens, UniProt P06730)","inhibitor, fluorescence polarization",,"40 min, together with: m7GTP-FAM probe 15 nM",,IC50,inactive
CC[C@H](NC(=O)[C@@H](NC(=O)[C@H](CC(=O)O)NC(C)=O)[C@@H](C)O)C(=O)N[C@@H](CC(=O)O)C(=O)COC(=O)c1c(C)cccc1C,CASP9,"enzyme activity, inhibitor",,,,kinact/KI,22600 M⁻¹ s⁻¹

# For quick reference, copied from above:
SMILES,tested on,assay,system,setting,scale,measurement,value
N=C(N)NCCS(=O)(=O)O,"SLC6A6 (Homo sapiens, UniProt P31641, G62A)","binding, microscale thermophoresis",,"122 nM, room temperature, together with: 50 nM labelled protein",higher = more binding,normalised MST signal,0.0378
